Experimental data of several laboratories.
Each numbered part is a random draw from the data of one study; scales do not carry over between parts. Substitutions count along the parent as printed.

Sample 1
Target: RNA binding protein fox-1 homolog 2, RRM domain, GST-SBP tag (RBFOX2, Homo sapiens, UniProt O43251-10, residues 100-194)
Technique: RNA Bind-n-Seq
Molecule type: RNA
Matrix: in vitro
Concentration: 365 nM
Setting: natural RNA segment, single round, ends assumed
Reference: no-protein control
Reading: higher = stronger binding
Quantity: RBNS enrichment (R)
Shared flanks, not repeated: GGGAGUUCUACAGUCCGACGAUC … UGGAAUUCUCGGGUGCCAA
Residues (chain): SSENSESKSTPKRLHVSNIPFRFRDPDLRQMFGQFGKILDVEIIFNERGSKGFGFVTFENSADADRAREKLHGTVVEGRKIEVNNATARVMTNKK
GUCCAGUAUAAUUUUCCCUGAUAUGAAAAAAUGUGCAUUUUUUUCACUUAGCAACAAAGUACCUUCUAAUUUCCAAUAGUCCGUGAAAGUUGGGGCUGAAGUACCUAAGU: 1.02
GCUCUCAGGCCCUUCCUGAUGUGAUGAAUGAAUCUACUAAUCAUUUCUUGACCAUUCAUUUUAUCACUUCUAACCUUGAAACAUGUGGAAGUAGCUAUGUUCCUGACUGU: 0.383
AAAAUUCAGCAGAUCUCCUUUCUAGGUGCAACUGUUCAGUGAAUUCCCUCACUAAAAGCUUAAGCAAUUGUCAGUCAGAAUUCUGUUUGCUGAGUGCUGGUGCAGGCUUU: 0.765
ACCAUGUAUCUUGGCCGGUUUCAUAUUUGUAAGAAGCACCGGUAGGAACCUAAGAGCAUCGGUUGGAGUGUGACCUCUGAUGCCCCUGCAUUCCCGCCACUGUGUCUCUG: 0.471
UAUAGGAAAUAUUUUCAUUGAGUCCAAAAUACCACUGUUUUGUUGAUGGACUUGAAUGCAUUUUUGUCUCUUCUUGAUGAAGCGGCUUUGCCGCAGCAAAUGAGGCUUCU: 0.38
CUGGGGCUCCUUCCACGGACCCCAGCUGUGCCCUCAAGUUGGUGAUUCUAGUUUGGGCUCAAUGAAGGAAGCAGGAAGGGGCAGCAACUGAAUGUCACUCUCCACUGCUG: 1.02
UCCAGCUAUUGAAAGCAACAACCUAAUGGGUCCAUUUGGUCCCCCUGGGUCAUUUUAACAAGGGUGAGGUAUUUAGCAUCAAAUAAAAAGAUUGUAGUCAGCAUUUCAUU: 1.39
UCCUCGUUUUACAUUCAUUCCUCUUUGGAUUUGCUUUGUGAUUUUGUUGUUGUUGAUGUUGUUGUUGUUGUGUAAUGUAACAGCACUUUAAAAGGGCGACAACUGACUCA: 0.319

Sample 2
Target: CCNB2, cyclin fold, Cln2 fusion (human)
Technique: yeast growth competition, sequencing
Matrix: yeast
Setting: strong parent motif
Reference: not given
Reading: higher = stronger binding
Quantity: normalised enrichment score
Parent: PKMYT1 docking peptide (human); SFEPRNLLSLFED
SFEPRNLNSLFED [L8N]: 0.294
SFCPRNLLSLFED [E3C]: 1.15
SFEPRNLYSLFED [L8Y]: 1.52
SDEPRNLLSLFED [F2D]: 0.0505
SFEPVNLLSLFED [R5V]: 1.06
SFEPRNLLSFFED [L10F]: 0.63

Sample 3
Substance: PhoQ, residues 284 288 289 292 302 303 SNSSNI
Technique: Sort-seq
Refers to: YFP reporter
Matrix: E. coli
Setting: PhoQ-PhoP variant library
With: 10 µM Mg2+
Reference: high Mg2+ state
Reading: higher = stronger signaling
Quantity: fold induction
PhoP, residues 12 14 15 18 19 NQCAL (Escherichia coli, UniProt P23836): 2.9
PhoP, residues 12 14 15 18 19 TQAML (Escherichia coli, UniProt P23836): 10.3
PhoP, residues 12 14 15 18 19 LHTVL (Escherichia coli, UniProt P23836): 11.8

Sample 4
Target: Histone acetyltransferase KAT6A, winged helix 1, GST fusion (KAT6A, Homo sapiens, UniProt Q92794, residues 1-85)
Technique: protein binding microarray
Molecule type: double-stranded DNA, one strand shown
Matrix: in vitro
Concentration: not given
Setting: 8-mer, flanks averaged, mean of 2 arrays, mostly near background
Reference: not given
Reading: higher = stronger binding
Quantity: E-score
Construct (chain): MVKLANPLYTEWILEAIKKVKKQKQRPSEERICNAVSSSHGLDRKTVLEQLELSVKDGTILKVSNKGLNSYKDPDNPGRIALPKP
AGTATACT: -0.148
CAAGCCTC: -0.148
CAAGCTGC: -0.0208
CTTTCAGC: 0.135
TGCGGCAA: 0.259
GCCCACAC: -0.042
GGCAGGTA: 0.067
AACACGCC: 0.294
ATTCAATG: -0.127

For quick reference, copied from above (sample 1):
CUGGGGCUCCUUCCACGGACCCCAGCUGUGCCCUCAAGUUGGUGAUUCUAGUUUGGGCUCAAUGAAGGAAGCAGGAAGGGGCAGCAACUGAAUGUCACUCUCCACUGCUG: 1.02
UCCAGCUAUUGAAAGCAACAACCUAAUGGGUCCAUUUGGUCCCCCUGGGUCAUUUUAACAAGGGUGAGGUAUUUAGCAUCAAAUAAAAAGAUUGUAGUCAGCAUUUCAUU: 1.39
UCCUCGUUUUACAUUCAUUCCUCUUUGGAUUUGCUUUGUGAUUUUGUUGUUGUUGAUGUUGUUGUUGUUGUGUAAUGUAACAGCACUUUAAAAGGGCGACAACUGACUCA: 0.319
